Results of several laboratories.
Parts stem from different laboratories: compare values within a part only. Substitutions count along the parent as printed.
UniProt Q8RYC8, sequence (whole entry, looked up): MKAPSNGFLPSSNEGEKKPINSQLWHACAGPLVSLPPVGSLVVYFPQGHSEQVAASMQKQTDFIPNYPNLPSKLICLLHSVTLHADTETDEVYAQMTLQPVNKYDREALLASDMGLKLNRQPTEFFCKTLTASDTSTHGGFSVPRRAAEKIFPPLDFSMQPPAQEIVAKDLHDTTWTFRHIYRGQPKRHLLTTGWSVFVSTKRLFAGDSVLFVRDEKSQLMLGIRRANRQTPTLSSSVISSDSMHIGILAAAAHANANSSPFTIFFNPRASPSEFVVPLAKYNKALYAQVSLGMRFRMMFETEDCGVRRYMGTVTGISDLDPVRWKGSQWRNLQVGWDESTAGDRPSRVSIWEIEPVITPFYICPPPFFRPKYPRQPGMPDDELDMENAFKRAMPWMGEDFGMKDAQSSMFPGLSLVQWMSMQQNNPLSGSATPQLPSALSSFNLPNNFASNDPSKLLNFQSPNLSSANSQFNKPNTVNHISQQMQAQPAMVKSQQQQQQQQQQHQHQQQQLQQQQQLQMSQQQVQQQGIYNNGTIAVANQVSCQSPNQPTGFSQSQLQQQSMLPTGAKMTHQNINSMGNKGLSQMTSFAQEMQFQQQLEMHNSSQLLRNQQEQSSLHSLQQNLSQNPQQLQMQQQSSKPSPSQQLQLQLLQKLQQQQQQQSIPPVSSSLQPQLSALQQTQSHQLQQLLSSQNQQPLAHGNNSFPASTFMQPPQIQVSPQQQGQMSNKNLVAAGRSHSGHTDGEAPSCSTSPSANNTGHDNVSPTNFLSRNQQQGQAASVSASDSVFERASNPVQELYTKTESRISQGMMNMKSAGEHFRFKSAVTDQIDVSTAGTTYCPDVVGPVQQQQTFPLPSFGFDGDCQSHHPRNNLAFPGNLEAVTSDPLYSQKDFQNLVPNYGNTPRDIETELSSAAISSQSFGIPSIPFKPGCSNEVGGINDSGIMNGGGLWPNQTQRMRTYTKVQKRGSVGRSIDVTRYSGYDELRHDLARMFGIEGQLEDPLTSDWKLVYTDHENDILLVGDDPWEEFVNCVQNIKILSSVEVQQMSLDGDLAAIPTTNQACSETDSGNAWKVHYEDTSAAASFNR
UniProt Q9ZTX9, sequence (whole entry, looked up): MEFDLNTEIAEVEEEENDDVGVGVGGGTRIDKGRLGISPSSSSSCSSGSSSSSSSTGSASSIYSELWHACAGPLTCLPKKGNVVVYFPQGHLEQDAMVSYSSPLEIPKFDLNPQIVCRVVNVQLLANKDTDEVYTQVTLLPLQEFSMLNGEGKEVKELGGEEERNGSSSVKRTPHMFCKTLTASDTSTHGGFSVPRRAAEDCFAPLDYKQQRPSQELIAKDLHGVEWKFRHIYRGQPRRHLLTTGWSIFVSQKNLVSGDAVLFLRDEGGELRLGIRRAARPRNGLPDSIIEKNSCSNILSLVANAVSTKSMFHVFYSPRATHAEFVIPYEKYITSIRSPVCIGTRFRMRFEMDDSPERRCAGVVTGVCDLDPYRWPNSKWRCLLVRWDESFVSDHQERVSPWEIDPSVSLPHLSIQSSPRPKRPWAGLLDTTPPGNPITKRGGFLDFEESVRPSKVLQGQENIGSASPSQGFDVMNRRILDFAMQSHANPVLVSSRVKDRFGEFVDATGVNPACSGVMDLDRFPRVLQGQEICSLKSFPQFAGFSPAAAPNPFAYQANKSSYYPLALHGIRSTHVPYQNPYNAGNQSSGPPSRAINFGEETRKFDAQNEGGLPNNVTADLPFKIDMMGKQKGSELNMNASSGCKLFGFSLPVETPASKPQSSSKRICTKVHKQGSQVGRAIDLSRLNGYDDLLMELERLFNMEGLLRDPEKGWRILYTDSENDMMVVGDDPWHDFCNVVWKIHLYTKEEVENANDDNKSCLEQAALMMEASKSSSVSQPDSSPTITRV
UniProt Q9FX25, sequence (whole entry, looked up): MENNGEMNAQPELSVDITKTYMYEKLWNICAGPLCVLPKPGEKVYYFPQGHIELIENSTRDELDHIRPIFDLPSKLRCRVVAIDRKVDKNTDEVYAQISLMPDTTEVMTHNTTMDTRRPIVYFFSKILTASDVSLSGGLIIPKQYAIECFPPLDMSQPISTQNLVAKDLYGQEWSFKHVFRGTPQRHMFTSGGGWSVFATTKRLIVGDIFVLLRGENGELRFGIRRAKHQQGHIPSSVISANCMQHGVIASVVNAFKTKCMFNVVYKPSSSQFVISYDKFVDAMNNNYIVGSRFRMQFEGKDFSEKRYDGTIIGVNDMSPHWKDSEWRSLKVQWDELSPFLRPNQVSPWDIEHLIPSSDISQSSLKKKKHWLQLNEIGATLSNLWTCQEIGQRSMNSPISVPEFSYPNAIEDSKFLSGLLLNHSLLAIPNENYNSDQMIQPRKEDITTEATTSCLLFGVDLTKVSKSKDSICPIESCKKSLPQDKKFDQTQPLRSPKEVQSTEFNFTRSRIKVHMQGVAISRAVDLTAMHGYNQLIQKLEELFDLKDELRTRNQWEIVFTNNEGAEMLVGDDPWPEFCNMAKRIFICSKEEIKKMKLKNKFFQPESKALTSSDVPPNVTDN
UniProt Q9FKM7, sequence (whole entry, looked up): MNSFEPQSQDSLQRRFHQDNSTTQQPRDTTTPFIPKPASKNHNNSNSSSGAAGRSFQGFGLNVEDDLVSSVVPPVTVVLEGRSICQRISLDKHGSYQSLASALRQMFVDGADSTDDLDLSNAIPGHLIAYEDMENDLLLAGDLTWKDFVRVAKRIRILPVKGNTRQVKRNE
UniProt Q8L7G0, sequence (whole entry, looked up): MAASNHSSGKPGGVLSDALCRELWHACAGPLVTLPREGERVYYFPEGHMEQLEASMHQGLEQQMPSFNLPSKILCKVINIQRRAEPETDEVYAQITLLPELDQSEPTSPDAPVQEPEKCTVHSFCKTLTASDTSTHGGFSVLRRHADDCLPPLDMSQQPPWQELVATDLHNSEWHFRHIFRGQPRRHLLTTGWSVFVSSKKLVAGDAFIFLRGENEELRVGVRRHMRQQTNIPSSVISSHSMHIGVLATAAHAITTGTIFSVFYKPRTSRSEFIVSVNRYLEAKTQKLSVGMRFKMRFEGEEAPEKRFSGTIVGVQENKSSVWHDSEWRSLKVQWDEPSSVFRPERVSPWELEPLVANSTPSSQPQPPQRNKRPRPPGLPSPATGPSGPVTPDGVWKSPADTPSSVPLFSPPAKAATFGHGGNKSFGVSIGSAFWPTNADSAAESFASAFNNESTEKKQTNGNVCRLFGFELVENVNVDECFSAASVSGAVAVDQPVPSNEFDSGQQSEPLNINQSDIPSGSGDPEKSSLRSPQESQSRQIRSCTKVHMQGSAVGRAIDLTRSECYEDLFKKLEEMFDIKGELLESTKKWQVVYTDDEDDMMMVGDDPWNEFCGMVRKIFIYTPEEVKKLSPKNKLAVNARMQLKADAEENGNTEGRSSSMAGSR
UniProt Q38824, sequence (whole entry, looked up): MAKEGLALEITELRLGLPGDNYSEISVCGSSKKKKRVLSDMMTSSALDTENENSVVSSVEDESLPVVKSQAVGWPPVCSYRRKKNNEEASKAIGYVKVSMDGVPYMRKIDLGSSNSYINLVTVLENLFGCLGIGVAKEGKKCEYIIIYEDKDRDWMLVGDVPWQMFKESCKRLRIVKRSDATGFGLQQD

Study 1
Molecule: B1 (IAA2)
Technique: two-hybrid
Baseline: out of 4 tests
Direction: higher = firmer interaction
B1: IAA2 (Arabidopsis thaliana, UniProt P49678); chain MAYEKVNELNLKDTELCLGLPGRTEKIKEEQEVSCVKSNNKRLFEETRDEEESTPPTKTQIVGWPPVRSSRKNNNSVSYVKVSMDGAPYLRKIDLKTYKNYPELLKALENMFKVMIGEYCEREGYKGSGFVPTYEDKDGDWMLVGDVPWDMFSSSCKRLRIMKGSDAPALDSSL
partner	positive tests
ARF13 (Arabidopsis thaliana, UniProt Q9FX25)	1
IAA6 (Arabidopsis thaliana, UniProt Q38824)	1
ARF1 538-665 (Arabidopsis thaliana, UniProt Q8L7G0)	0
IAA33 (Arabidopsis thaliana, UniProt Q9FKM7)	3
IAA4 (Arabidopsis thaliana, UniProt P33077)	4
ARF4 660-788 (Arabidopsis thaliana, UniProt Q9ZTX9)	0
IAA3 (Arabidopsis thaliana, UniProt Q38822)	4
ARF19 948-1086 (Arabidopsis thaliana, UniProt Q8RYC8)	4

Study 2
Target: RNA binding protein fox-1 homolog 2, RRM domain, GST-SBP tag (RBFOX2, Homo sapiens, UniProt O43251-10, residues 100-194)
Technique: RNA Bind-n-Seq
Form: RNA
Medium: in vitro
Tested at: 365 nM
Setting: natural RNA segment, single round, ends assumed
Baseline: no-protein control
Direction: higher = stronger binding
All sequences stand within: GGGAGUUCUACAGUCCGACGAUC … UGGAAUUCUCGGGUGCCAA
Target sequence (chain): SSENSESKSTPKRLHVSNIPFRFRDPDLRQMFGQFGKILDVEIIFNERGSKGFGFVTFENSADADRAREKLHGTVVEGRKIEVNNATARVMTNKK
Strand	RBNS enrichment (R)
AACCCCACUCAGAAACAGAGAAAACUGGGGUCGCGAAGAAAUCACAGCCAAGGAAGAUUUGAUGCAUUCAGAUUCUCGUGUAACACUUGUUGCUUGGCAACAGUACUGGU	0.244
CAGCCAUGGGAGGCAGCCUGCAUACCUGGAAGCCAGCUGCACAGUGCUGUGGGGAAACAGAAGCGUUACAGACCGGGCCAGGCUGCCUGGCUGCUGCUCCCUCUGGGCUC	0.537
UCUCCUUUGCAAAGGACAGUUUUGAAUGAAUUGUACCUCAAUAUGUUCUGGGACAGUGUCAAAAUGGAAUAACCUGGCAUAAAGCUGAAUUAUCUGAGGAAACUCAAUGG	0.323
AGGCCGAGACAGGCGGAUCACCUGAGGUCGGGAGUUCGAGACCAGCCUUACCAACAUGGAGAAACCCCAUCUCUACUAAAAAUACAAAAUUACCUGGGCGUGGUGGUGCA	3.7
AGACCCCAUACCCGCCCUUGAGUCUGUUUGCAAUUCCUGGGAUCAGGCCCACUCCAGGAGGUGGGCCUCUGGAAUUACAUCUCUACCCUACCCACUUUGGAACCCACUUU	0.891
AUAUUAAAUGAGCAUUUGACCUGUAGAUACAUAGUGUGCCGUUUGGCCAGAGCUCCUGGUGUCAAAUGCUGGGAACAGGAGUCUUCUUACAAAUUAUUUUUCUCCUCUUU	0.388
AAUCCAGUUGGAACAUACAUGCUUUUUUGAAGAAAUUACUUGAAUAAAAUAGUUUUCACAUUUUCAAUAUGCAAGUUUUGAAAAUGAGGAUUUGCCUGGACUUUUUUAUA	1.48
UUUUUAAACUCUUAUUUAAGAGUAAGUUGAGUUGAACUGAAUCUUCCUUGUCUUAGUAACAUUGUACAAAUAGUGGCUUAUUUUUAAGUUGUAAUGCCUCCUGAUGGAUA	0.883

Study 3
Target: ATF5, bZIP domain (human)
Technique: DHFR protein complementation
Medium: yeast
Setting: single substitutions, most at no-binding floor
Baseline: wild-type JUN-FOS pair
Direction: higher = stronger binding
Starting sequence: JUN, bZIP domain (human); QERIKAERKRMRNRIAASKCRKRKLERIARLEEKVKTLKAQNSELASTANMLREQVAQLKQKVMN; partner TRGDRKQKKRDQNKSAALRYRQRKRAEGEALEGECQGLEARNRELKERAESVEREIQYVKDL
Substitution	binding fitness
A29Y	-1.33 natural log
L52S	-1.55 natural log
E32G	-1.43 natural log
K34D	-1.55 natural log
M51S	-1.5 natural log
E33H	-1.32 natural log
Q41C	-1.49 natural log
A40Y	-1.39 natural log

Study 4
Target: UDP-N-acetylglucosamine--peptide N-acetylglucosaminyltransferase 110 kDa subunit (OGT, Homo sapiens, UniProt O15294)
UniProt O15294, sequence (whole entry, looked up): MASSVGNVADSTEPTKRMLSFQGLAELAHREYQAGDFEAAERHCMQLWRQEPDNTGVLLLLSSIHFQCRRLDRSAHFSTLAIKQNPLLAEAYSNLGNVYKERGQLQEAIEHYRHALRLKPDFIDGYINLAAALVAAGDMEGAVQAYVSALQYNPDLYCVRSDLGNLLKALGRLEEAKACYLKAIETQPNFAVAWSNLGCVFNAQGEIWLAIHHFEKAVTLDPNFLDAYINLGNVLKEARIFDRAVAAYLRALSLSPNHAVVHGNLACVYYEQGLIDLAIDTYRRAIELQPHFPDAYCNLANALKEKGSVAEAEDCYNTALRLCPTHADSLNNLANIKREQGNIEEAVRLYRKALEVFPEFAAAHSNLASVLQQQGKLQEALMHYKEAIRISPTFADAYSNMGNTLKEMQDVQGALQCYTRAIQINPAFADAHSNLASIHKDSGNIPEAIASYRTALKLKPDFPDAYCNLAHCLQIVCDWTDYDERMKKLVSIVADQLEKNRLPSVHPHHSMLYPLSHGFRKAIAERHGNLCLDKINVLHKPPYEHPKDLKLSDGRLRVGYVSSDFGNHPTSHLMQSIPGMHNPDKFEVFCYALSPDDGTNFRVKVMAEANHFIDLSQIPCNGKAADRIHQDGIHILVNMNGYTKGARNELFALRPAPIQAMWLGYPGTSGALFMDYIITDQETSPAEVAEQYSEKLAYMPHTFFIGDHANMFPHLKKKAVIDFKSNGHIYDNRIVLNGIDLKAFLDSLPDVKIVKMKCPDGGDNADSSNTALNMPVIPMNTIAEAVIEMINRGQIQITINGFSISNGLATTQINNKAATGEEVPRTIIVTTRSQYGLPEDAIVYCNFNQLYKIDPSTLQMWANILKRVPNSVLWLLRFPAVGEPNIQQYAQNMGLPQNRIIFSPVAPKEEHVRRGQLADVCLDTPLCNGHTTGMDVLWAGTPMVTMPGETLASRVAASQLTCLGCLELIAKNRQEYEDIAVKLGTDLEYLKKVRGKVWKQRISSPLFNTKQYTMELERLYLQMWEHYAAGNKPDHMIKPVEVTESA
Read-out: binding
Technique: phage display NGS
Form: peptide
Tested at: concentration not given
Setting: panning round 2
Baseline: input library
Molecule	enrichment fold change
DNVYPMYQMTYKAID	8.76
MQEYSPGYQIQFSKP	7.66
KFMPVYQIIAEMGAF	9.38
NLHHYAKWLASIDH	2.79
SSWPWTMHMHQPSYH	5.04
SINYKLQPKYQIFFP	8.89
QYVPYYQIEVNSQPY	5.24
YMPQYQIMAQDKKV	2.91
WVLVPPFYQIVPSNR	124
MWSPTVPPKYIIKYK	7.84
QDLMPYYPIQYYQER	16
THWSHYDTEHVDYTH	3.19
YTPLRHPMHEHDHNH	9.86
SHMESHANNHHRAHW	5.03
HWQHVHHADPSDAVK	9.4
HQIPVLLHHSHTRNI	6.15
DVYLHKHQRDHAYVA	11.3
QDFKPMYQIKIRSHA	136
HSWDHIWHTTYDNDK	5.19
YDFLPMYQIRFYDYN	5.06
HLTMGHSRTDDSRNH	5.98
TVTPKYPPQYQILV	10.9
HVPRQHYAMYPHQYR	5.4
SDRTPYTPRYQISY	7.84
VQAQFRPVYQIYSAP	4.44

Mixed results
Substance	target or system	assay	system	conditions	scale	endpoint	result
MTBP (Homo sapiens, UniProt Q96DY7)	VPS4A (Homo sapiens, UniProt Q9UN37)	cross-linking MS		with: DSSO		cross-linked residues	K289 to K69
CCn1cc(C(=O)O)c(=O)c2cc(F)c(N3CCNCC3)nc21	HEK-293T	pseudovirus infection, FDA-approved drug library counter-screen	VSV pseudotyped with VSV-G	10 µM, 16 h	baseline: vehicle-treated	GFP-positive cells	112%

For quick reference, copied from above (study 3):
Substitution	binding fitness
A29Y	-1.33 natural log
M51S	-1.5 natural log
Q41C	-1.49 natural log
L52S	-1.55 natural log
E32G	-1.43 natural log
E33H	-1.32 natural log
